Measurements collected from several papers.
Lines come from different studies, so protocols differ. ± gives the spread as reported.
CNR1: Cannabinoid receptor 1 (CNR1, Homo sapiens, UniProt P21554)
Slc6a3: Sodium-dependent dopamine transporter (Slc6a3, Rattus norvegicus, UniProt P23977)
ADRA2C: Alpha-2C adrenergic receptor (ADRA2C, Homo sapiens, UniProt P18825)

SMILES = Nc1ncnc2c1ncn2[C@@H]1O[C@H](COP(=O)(O)OP(=O)(O)OP(O)(O)=S)[C@@H](O)[C@H]1O; target = Tryptophan--tRNA ligase (Mycobacterium tuberculosis, UniProt P9WFT3); assay = ATP probe labelling, competitor, chemoproteomics; system = Mycobacterium tuberculosis, lysate; setting = 500 µM; how to read = reference: untreated; measurement = fold change; result = 7 fold
SMILES = NC(=O)[C@H](Cc1ccccc1)NC(=O)c1nn(Cc2ccc(F)cc2)c2ccccc12; target = CNR1; assay = calcium mobilization, agonist; system = CHO-K1 expressing Gαq16; how to read = reference: CP55,940 maximum; measurement = Emax; result = 115 ± 2%
SMILES = C[n+]1ccc(-c2ccccc2)cc1; target = Equilibrative nucleoside transporter 4 (SLC29A4, Homo sapiens, UniProt Q7RTT9); assay = transporter uptake, substrate, radiometric; measurement = Km; result = 43.6 µM
SMILES = O=C1NC(=S)NC(=O)C1=Cc1ccc(/N=N/c2ccccc2)cc1; target = Peroxisome proliferator-activated receptor gamma, ligand-binding domain (PPARG, Homo sapiens, UniProt P37231); assay = reporter gene, agonist; system = HEK293T; setting = up to 10 µM, trans isomer, dark; measurement = EC50; result = inactive
SMILES = CNC(C)Cc1ccc2ccoc2c1 (stereo not shown); target = Slc6a3; assay = [3H]MPP+ release, releaser; system = rat brain synaptosomes; how to read = reference: DAT over NET, higher = more DAT-selective; measurement = selectivity ratio; result = 0.7
SMILES = N[C@H]1[C@@H](O[C@@H]2[C@H](O)[C@H](O)[C@@H](O)[C@H](O)[C@H]2O)O[C@H](CO)[C@@H](O)[C@@H]1O; target = L-cysteine:1D-myo-inositol 2-amino-2-deoxy-alpha-D-glucopyranoside ligase (Mycobacterium tuberculosis, UniProt P9WJM9); assay = enzyme activity; setting = substrate varied, others saturating; measurement = apparent Vmax; result = 83 ± 10 nmol/min/mg
SMILES = CNC(C)Cc1ccc2occc2c1 (stereo not shown); target = Slc6a3; assay = [3H]MPP+ release, releaser; system = rat brain synaptosomes; how to read = reference: DAT over NET, higher = more DAT-selective; measurement = selectivity ratio; result = 0.58
SMILES = N[C@@H](Cc1c[nH]c2ccccc12)C(=O)O; target = Tryptophan decarboxylase (Clostridium sporogenes, UniProt J7SZ64); assay = decarboxylation, substrate, HPLC; system = Clostridium sporogenes, crude extract; setting = pH 7.0, 37 °C; measurement = Km; result = 2200 ± 100 µM
SMILES = C[C@H]1N=C(c2ccccc2F)c2cc(Br)ccc2NC1=O; target = ADRA2C; assay = ligand displacement, radioligand; setting = 10 µM; measurement = inhibition; result = 1%
SMILES = C[C@]12CCC(=O)CC1=CC[C@@H]1[C@@H]2CC[C@]2(C)C(=O)CC[C@@H]12; target = 3 beta-hydroxysteroid dehydrogenase/Delta 5-->4-isomerase type 1 (HSD3B1, Homo sapiens, UniProt P14060, R196P); assay = substrate; measurement = Km; result = 63.2 µM
SMILES = CC1(C)C(C(=O)c2cn(CCCCCF)c3ccccc23)C1(C)C; target = CNR1; assay = GIRK channel response, agonist; system = AtT20 expressing CB1; how to read = reference: WIN 55212-2 10 µM; measurement = Emax; result = 53 ± 2.6%
SMILES = CNC(C)C(=O)c1ccccc1 (stereo not shown); target = Slc6a3; assay = substrate release; system = rat brain synaptosomes; how to read = reference: SERT EC50 over target EC50; measurement = selectivity ratio; result = 309
SMILES = C[C@H](N)Cc1ccccc1; target = Histamine H3 receptor (HRH3, Homo sapiens, UniProt Q9Y5N1); assay = antagonist; system = membranes expressing H3 receptor; setting = with: (R)-α-methylhistamine 1 µM; measurement = Kb; result = inactive
SMILES = CC(N)Cc1ccc2c(c1)OCO2 (racemic); target = Slc6a3; assay = [3H]MPP+ release, releaser; system = rat brain synaptosomes; how to read = reference: DAT over SERT, higher = more DAT-selective; measurement = selectivity ratio; result = 1.53
SMILES = C[C@]12CC[C@H](OS(=O)(=O)[O-])CC1=CC[C@@H]1[C@@H]2CC[C@]2(C)C(=O)CC[C@@H]12.[Na+]; target = sulfatase, human liver microsomes; assay = substrate; setting = pH 7.4, 37 °C; measurement = Vmax; result = 2 ± 0.2 nmol/min/mg
SMILES = CC1N=C(c2ccccc2F)c2cc(N(C)C)ccc2NC1=O (stereo not shown); target = ADRA2C; assay = ligand displacement, radioligand; setting = 10 µM; measurement = inhibition; result = 28%
SMILES = CNC(C)Cc1ccc2c(c1)OCO2 (racemic); target = Slc6a3; assay = [3H]MPP+ release, releaser; system = rat brain synaptosomes; how to read = reference: DAT over NET, higher = more DAT-selective; measurement = selectivity ratio; result = 0.75
SMILES = C/C(=C\CC/C(C)=C/COP(=O)(O)OP(=O)(O)O)CC/C=C(\C)CCCN(C)C; target = Type B diterpene cyclase (Mycobacterium tuberculosis, UniProt O50406); assay = enzyme activity, inhibitor, item: HPP from GGPP; measurement = IC50; result = 2 nM
SMILES = CN[C@@H](C)[C@H](O)c1ccccc1; target = L-aminoadipate-semialdehyde dehydrogenase-phosphopantetheinyl transferase (AASDHPPT, Homo sapiens, UniProt Q9NRN7); assay = enzyme activity; setting = concentration not given, pH 7.6; measurement = activity; result = inactive
SMILES = CC(C)[C@@H]1NC(=O)[C@@H]2CSSC[C@H](NC(=O)[C@@H](N)CCCCN)C(=O)N[C@@H](CCCNC(=N)N)C(=O)N[C@@H](CCC(=O)O)C(=O)N[C@H]3CSSC[C@H](NC(=O)[C@H](CCCCN)NC(=O)CNC(=O)[C@H](CC(N)=O)NC1=O)C(=O)N[C@@H](C(C)C)C(=O)N[C@H](C(=O)N1CCC[C@H]1C(=O)N[C@@H](C)C(=O)O)CSSC[C@H](NC(=O)[C@H](CO)NC(=O)[C@@H]1CCCN1C(=O)[C@H](CO)NC(=O)[C@H]([C@@H](C)O)NC(=O)[C@H](CC(N)=O)NC(=O)CNC3=O)C(=O)N[C@@H](Cc1ccc(O)cc1)C(=O)N[C@@H](Cc1ccccc1)C(=O)N[C@@H](CO)C(=O)NCC(=O)N[C@@H](CC(N)=O)C(=O)N2; target = Potassium voltage-gated channel subfamily A member 3 (KCNA3, Homo sapiens, UniProt P22001); assay = whole-cell patch clamp, voltage ramp; system = activated human T lymphocytes; setting = 2 nM, 200 ms ramp, equilibrium block; measurement = activation threshold voltage; result = ~-40 mV
SMILES = CC[C@H]1C[C@H]2C[C@H]3c4[nH]c5ccc(O)cc5c4CCN(C2)[C@@H]13; target = Sodium-dependent serotonin transporter (Slc6a4, Mus musculus, UniProt Q60857); assay = transporter function, inhibitor, two-photon imaging; system = acute mouse brain slices; how to read = reference: axonal over somato-dendritic regions; measurement = potency ratio; result = > 50 fold
SMILES = CC(N)Cc1ccc2ccoc2c1 (stereo not shown); target = Slc6a3; assay = [3H]MPP+ release, releaser; system = rat brain synaptosomes; how to read = reference: DAT over SERT, higher = more DAT-selective; measurement = selectivity ratio; result = 3.6

Some of these lines once more:
SMILES = C[C@H]1N=C(c2ccccc2F)c2cc(Br)ccc2NC1=O; target = ADRA2C; assay = ligand displacement, radioligand; setting = 10 µM; measurement = inhibition; result = 1%
SMILES = N[C@@H](Cc1c[nH]c2ccccc12)C(=O)O; target = Tryptophan decarboxylase (Clostridium sporogenes, UniProt J7SZ64); assay = decarboxylation, substrate, HPLC; system = Clostridium sporogenes, crude extract; setting = pH 7.0, 37 °C; measurement = Km; result = 2200 ± 100 µM
